Results collected from several papers.
A part holds a random share of what one study measured. ± marks the error that the study gave.
Chain of UniProt Q9NRH2 (whole entry, looked up): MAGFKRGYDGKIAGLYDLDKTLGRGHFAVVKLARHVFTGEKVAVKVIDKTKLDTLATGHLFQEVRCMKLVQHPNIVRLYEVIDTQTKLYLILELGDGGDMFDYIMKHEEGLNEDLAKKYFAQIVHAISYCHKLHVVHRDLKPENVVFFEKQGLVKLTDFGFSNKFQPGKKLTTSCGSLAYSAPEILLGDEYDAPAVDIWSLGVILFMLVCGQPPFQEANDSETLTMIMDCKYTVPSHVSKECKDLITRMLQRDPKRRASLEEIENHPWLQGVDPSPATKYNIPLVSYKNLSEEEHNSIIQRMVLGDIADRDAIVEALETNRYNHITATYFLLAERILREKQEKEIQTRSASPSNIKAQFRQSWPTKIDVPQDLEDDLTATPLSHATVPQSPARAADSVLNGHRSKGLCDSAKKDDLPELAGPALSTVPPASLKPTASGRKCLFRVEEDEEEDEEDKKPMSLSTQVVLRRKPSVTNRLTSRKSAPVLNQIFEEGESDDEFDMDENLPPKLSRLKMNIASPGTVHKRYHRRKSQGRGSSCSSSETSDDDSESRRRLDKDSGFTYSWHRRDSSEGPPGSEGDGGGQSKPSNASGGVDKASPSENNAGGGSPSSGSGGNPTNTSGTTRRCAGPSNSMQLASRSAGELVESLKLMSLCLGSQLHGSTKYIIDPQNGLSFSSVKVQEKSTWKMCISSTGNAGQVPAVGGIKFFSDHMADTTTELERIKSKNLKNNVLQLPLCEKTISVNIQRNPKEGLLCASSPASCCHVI
Chain of UniProt Q9NYY3 (whole entry, looked up): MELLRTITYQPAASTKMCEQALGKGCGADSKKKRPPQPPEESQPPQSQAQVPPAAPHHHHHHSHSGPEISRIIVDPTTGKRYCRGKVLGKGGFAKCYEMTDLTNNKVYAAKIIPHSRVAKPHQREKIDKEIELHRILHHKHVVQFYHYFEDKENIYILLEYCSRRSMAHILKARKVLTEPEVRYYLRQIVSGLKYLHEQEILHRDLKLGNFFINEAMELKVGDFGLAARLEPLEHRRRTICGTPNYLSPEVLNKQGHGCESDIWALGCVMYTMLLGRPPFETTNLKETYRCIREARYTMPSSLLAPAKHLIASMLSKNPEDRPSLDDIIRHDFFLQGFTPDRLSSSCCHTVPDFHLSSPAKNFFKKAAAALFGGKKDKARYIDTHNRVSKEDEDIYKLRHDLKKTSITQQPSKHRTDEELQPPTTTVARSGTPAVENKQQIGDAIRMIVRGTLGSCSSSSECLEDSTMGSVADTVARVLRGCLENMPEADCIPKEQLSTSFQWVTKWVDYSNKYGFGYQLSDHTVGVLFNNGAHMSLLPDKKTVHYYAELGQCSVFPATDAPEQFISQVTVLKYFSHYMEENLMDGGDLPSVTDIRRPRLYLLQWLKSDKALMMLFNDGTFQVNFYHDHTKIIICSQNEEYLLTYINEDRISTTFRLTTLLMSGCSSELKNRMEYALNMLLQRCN
Chain of UniProt Q99558 (whole entry, looked up): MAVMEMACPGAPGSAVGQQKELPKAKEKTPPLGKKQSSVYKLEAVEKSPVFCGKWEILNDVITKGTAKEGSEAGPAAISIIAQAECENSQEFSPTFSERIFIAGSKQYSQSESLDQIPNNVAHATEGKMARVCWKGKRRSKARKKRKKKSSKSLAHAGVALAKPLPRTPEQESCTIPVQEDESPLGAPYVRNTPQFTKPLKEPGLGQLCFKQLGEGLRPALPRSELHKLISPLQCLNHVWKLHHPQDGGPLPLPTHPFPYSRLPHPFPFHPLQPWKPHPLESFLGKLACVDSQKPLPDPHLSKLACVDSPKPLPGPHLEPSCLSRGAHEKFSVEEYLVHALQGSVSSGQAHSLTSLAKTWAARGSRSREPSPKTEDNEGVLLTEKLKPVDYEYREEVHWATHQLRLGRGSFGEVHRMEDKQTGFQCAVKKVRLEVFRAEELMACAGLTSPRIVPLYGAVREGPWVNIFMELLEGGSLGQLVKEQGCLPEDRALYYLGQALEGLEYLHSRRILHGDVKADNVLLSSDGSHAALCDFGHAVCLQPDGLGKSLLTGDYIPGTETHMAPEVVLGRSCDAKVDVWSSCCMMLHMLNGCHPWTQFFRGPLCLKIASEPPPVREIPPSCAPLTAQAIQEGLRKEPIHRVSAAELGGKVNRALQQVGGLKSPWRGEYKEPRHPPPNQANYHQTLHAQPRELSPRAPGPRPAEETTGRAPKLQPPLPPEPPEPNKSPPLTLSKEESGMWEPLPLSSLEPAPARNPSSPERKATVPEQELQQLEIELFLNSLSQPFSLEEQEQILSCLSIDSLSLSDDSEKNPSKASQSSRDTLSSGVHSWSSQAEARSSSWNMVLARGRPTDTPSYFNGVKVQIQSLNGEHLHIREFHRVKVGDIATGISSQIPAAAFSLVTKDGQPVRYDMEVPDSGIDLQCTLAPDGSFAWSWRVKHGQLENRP
Chain of UniProt Q9UBE8 (whole entry, looked up): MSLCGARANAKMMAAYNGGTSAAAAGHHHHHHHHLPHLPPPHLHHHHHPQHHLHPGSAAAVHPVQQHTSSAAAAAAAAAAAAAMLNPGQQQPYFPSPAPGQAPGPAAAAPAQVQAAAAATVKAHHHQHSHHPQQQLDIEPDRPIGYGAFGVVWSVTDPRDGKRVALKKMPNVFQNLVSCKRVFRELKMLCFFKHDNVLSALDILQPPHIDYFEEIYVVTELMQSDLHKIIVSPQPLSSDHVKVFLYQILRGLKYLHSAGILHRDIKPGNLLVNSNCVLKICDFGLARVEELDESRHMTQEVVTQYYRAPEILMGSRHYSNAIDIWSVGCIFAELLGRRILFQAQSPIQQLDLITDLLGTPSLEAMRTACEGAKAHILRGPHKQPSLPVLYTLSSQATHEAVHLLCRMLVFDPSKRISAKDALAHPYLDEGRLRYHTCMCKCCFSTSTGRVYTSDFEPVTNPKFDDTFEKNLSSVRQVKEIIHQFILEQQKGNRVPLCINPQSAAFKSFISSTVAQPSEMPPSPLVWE

Series 1
Structure (SMILES): COc1ccc(-c2c(Nc3ccccn3)[nH]c3c(C4=CCCCC4)c(-c4ccccc4)nn3c2=O)cc1
Technique: immunohistochemistry
Baseline: before treatment
Direction: direction not given
assay	system	setting	SDMA H-score change [%]
–	cancer patients, paired tumour biopsies	200 mg twice daily	-25
–	cancer patients, paired tumour biopsies	dose not given, all doses	-36.5 ± 14
measured: symmetric dimethylarginine	human cancer patients, tumour biopsy	400 mg QD	-11.6 ± 26.6

Series 2
Cell line: A-375
Tested at: 100 µM
Time: 18 h
SMILES	viability [%]
CC1(C)S[C@@H]2[C@H](NC(=O)[C@H](C(=O)O)c3ccsc3)C(=O)N2[C@H]1C(=O)O	88.5
NCCCC[C@H](N[C@@H](CCc1ccccc1)C(=O)O)C(=O)N1CCC[C@H]1C(=O)O	83.8
CN1CCN2c3ncccc3Cc3ccccc3C2C1 (stereo not drawn)	96.6
Cc1c(O)cccc1C(=O)N[C@@H](CSc1ccccc1)[C@H](O)CN1C[C@H]2CCCC[C@H]2C[C@H]1C(=O)NC(C)(C)C	30

Series 3
SMILES: COc1ccc2cc(OCC3(C(=O)O)CN(C(=O)c4ccc(F)cc4)C3)ccc2c1
Read-out: cell-free assay
Technique: competition with immobilised ligand
Tested at: 1 µM
target	remaining binding [%]
NLK (Homo sapiens, UniProt Q9UBE8)	94
MAP3K14 (Homo sapiens, UniProt Q99558)	82
SNRK (Homo sapiens, UniProt Q9NRH2)	100
PLK2 (Homo sapiens, UniProt Q9NYY3)	100

Single results of other studies
Compound	system	measurement	result
CCC[C@H]1NC(=O)CSC[C@@H](C(=O)OCC)N(C)C(=O)[C@H](CC(C)C)NC(=O)[C@H](C)N(C)C(=O)[C@H](CC(C)C)NC(=O)[C@H](C)N(C)C(=O)[C@H]2CCCN2C(=O)[C@@H](CC(C)C)NC(=O)CN(CCC)C1=O	hydrocarbon/water	logD	1.01

Excerpt of the above (series 2):
SMILES	viability [%]
CN1CCN2c3ncccc3Cc3ccccc3C2C1 (stereo not drawn)	96.6
Cc1c(O)cccc1C(=O)N[C@@H](CSc1ccccc1)[C@H](O)CN1C[C@H]2CCCC[C@H]2C[C@H]1C(=O)NC(C)(C)C	30
